Measured values from different studies.
Compare with care: the assays were run in different laboratories. Numbers after ± are the reported error.
UniProt Q15464, sequence (whole entry, looked up): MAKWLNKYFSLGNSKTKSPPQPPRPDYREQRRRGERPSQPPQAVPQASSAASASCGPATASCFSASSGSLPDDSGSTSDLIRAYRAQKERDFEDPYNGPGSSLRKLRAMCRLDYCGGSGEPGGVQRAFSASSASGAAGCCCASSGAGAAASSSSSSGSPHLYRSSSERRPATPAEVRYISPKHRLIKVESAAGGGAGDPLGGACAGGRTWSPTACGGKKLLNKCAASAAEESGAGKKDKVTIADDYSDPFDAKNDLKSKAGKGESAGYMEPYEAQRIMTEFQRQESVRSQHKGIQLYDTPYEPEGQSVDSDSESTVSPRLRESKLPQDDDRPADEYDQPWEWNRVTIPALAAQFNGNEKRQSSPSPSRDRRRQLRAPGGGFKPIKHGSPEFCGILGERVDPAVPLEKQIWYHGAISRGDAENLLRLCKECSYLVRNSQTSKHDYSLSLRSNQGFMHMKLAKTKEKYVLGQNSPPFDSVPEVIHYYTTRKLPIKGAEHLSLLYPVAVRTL
UniProt P08254, sequence (whole entry, looked up): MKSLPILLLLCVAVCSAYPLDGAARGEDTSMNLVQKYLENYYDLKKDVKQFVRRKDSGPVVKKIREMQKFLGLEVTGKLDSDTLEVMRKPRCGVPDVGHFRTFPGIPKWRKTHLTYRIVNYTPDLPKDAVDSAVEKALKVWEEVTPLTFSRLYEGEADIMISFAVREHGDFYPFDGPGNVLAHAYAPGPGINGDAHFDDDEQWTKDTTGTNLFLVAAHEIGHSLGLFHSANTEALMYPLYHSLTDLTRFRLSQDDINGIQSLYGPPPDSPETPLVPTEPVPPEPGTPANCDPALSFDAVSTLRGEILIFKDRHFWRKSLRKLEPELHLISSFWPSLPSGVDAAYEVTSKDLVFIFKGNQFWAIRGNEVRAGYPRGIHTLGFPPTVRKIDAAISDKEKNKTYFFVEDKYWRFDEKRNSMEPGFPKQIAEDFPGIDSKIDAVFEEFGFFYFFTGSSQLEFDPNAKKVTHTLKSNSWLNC
UniProt P55060, sequence (whole entry, looked up): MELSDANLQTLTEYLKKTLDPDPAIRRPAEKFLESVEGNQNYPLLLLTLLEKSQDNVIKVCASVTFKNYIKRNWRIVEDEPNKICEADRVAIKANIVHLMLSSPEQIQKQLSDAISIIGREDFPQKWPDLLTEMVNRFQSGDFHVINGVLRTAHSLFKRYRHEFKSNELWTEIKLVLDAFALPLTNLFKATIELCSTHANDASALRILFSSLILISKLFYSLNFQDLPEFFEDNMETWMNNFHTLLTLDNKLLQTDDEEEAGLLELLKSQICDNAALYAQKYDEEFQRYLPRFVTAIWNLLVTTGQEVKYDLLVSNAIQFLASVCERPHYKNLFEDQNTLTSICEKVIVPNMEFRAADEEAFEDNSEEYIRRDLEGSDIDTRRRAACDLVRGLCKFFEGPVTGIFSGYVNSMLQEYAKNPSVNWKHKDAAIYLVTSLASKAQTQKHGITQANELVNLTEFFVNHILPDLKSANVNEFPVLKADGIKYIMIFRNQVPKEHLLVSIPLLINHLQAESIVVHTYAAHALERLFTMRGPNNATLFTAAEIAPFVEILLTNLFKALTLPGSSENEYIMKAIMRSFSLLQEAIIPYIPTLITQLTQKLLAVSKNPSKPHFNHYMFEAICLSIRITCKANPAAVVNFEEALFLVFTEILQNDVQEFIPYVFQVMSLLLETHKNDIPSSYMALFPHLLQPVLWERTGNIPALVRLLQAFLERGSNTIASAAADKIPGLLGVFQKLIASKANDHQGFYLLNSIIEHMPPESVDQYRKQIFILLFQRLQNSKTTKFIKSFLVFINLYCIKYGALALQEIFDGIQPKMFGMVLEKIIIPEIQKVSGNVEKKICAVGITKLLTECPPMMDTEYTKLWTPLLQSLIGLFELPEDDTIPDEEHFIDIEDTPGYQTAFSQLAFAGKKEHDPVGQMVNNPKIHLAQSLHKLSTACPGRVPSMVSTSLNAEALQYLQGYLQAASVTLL

For `[O-][S+]1CCc2nc(N3CCC(c4ncc(Cl)cn4)CC3)nc(NC3(CO)CCC3)c21` (stereo not shown), “adverse event incidence” read 0% (item: Diarrhoea; healthy male humans; 48 mg single dose).
With `CCc1ccc(CC/C=C/c2ccc3c(c2)C(=O)CC3)cc1` the total bilirubin was 1.62 µM (Sprague-Dawley rat, male, serum; oral, 120 mg/kg/day, 14 days).
With `CSCC[C@H](NC(=O)CNC(=O)[C@H](Cc1ccccc1)NC(=O)[C@H](CC(=O)O)NC(=O)CNC(=O)c1ccc2c(c1)C(=O)OC21c2ccc(N(C)C)cc2Oc2cc(N(C)C)ccc21)C(=O)N[C@@H](CO)C(=O)N[C@@H](CCCNC(=N)N)C(=O)N[C@@H](CC(=O)O)C(=O)N[C@H](C(=O)N[C@@H](Cc1ccc(OP(=O)(O)O)cc1)C(=O)N[C@@H](CO)C(=O)N[C@H](C(=O)N[C@@H](CC(=O)O)C(=O)N[C@@H](Cc1ccc(O)cc1)C(=O)N[C@@H](Cc1ccc(O)cc1)C(=O)N[C@@H](CCCNC(=N)N)C(=O)N[C@H](C(=O)N[C@@H](CC(=O)O)C(=O)O)C(C)C)[C@@H](C)O)C(C)C` the Kd was 1820 nM (SH2 domain-containing adapter protein B, SH2 domain (SHB, Homo sapiens, UniProt Q15464); binding).
Under “patients with ≥1 TEAE”, `O=C1Nc2cc3[nH]nc(-c4ccncc4)c3cc2CN1Cc1ccccc1` is recorded as 100% (CTCAE v4.03; advanced solid tumour patients; intravenous, 7.2 mg/kg, schedules 1/2).
`CCOC(=O)C1=C[C@@H](OC(CC)CC)[C@H](NC(C)=O)[C@@H](N)C1` — result for “absorption rate constant”: 0.211 h⁻¹ (Sprague-Dawley rat male, plasma and urine; oral, 30 mg/kg).
For `CO[C@H]1C[C@@H]2CC[C@@H](C)[C@@](O)(O2)C(=O)C(=O)N2CCCC[C@H]2C(=O)O[C@H]([C@H](C)C[C@@H]2CC[C@@H](OC(=O)NCCOCCOCCOCCOCCOCCOCCOCCOCCC(=O)N3CCc4cc(Cn5nc(-c6ccc7oc(N)nc7c6)c6c(N)ncnc65)ccc4C3)[C@H](OC)C2)C[C@@H](O)[C@H](C)/C=C(\C)[C@@H](O)[C@@H](OC)C(=O)[C@H](C)C[C@H](C)/C=C/C=C/C=C/1C`, “incidence of Headache TEAE” read 0% (patients with advanced solid tumours; intravenous, dose not given, grade ≥3).
`COc1cc2c(Oc3ccc4[nH]c(C)cc4c3F)ccnc2cc1OCC1(N)CC1`: “grade 1 or 2 Vomiting” 18.2% (paediatric recurrent refractory sarcoma; 12 mg).
With `CC(=O)OC[C@H]1O[C@@H](Oc2cc(O)cc3cc4oc(C)cc(=O)c4c(O)c23)[C@H](O)[C@@H](O)[C@@H]1O` the cell viability was 114 ± 13.1% (HK-2 co-cultured with HepaRG; MTT; 66.67 µM, 24 h; baseline: untreated control).
For `CC[C@H](C)[C@H](NC(=O)[C@H](Cc1ccccc1)NC(=O)[C@H](CCC(=O)O)NC(=O)[C@H](CCCNC(=N)N)NC(=O)[C@H](C)NC(=O)[C@H](C)NC(=O)[C@H](CCC(N)=O)NC(=O)[C@H](CCC(=O)O)NC(=O)[C@H](CCC(=O)O)NC(=O)[C@H](CC(C)C)NC(=O)[C@H](Cc1ccc(O)cc1)NC(=O)[C@H](CO)NC(=O)[C@H](CO)NC(=O)[C@@H](NC(=O)[C@H](CC(=O)O)NC(=O)[C@H](CO)NC(=O)[C@@H](NC(=O)[C@H](Cc1ccccc1)NC(=O)[C@@H](NC(=O)CNC(=O)[C@H](CCC(=O)O)NC(=O)[C@H](C)NC(=O)CCc1c[nH]cn1)[C@@H](C)O)[C@@H](C)O)C(C)C)C(=O)N[C@@H](C)C(=O)N[C@@H](Cc1c[nH]c2ccccc12)C(=O)N[C@@H](CC(C)C)C(=O)N[C@H](C(=O)N[C@@H](CCCNC(=N)N)C(=O)NCC(=O)N[C@@H](CCCNC(=N)N)C(=O)N[C@@H](CCCCNC(=O)COCCOCCNC(=O)COCCOCCNC(=O)CC[C@H](NC(=O)CCCCCCCCCCCCCCCCC(=O)O)C(=O)O)C(=O)NCC(=O)NCC(=O)N[C@@H](CO)C(=O)N[C@@H](CCCCNc1c(NCCCCCN(O)C(=O)CCC(=O)NCCCCCN(O)C(=O)CCC(=O)NCCCCCN(O)C(C)=O)c(=O)c1=O)C(=O)O)C(C)C` [zirconium-89 labelled], the tissue uptake was 1.1 %ID/g (rat, liver; iv, 3 nmol/kg, 24 h, ex vivo).
For `COc1cc(Nc2ncc(F)c(Nc3ccc4c(n3)NC(=O)C(C)(C)O4)n2)cc(OC)c1OC`, the IC50 was over 10000 nM (Stromelysin-1 (MMP3, Homo sapiens, UniProt P08254); metalloproteinase-3).
`CC[C@H](C)[C@H](NC(=O)[C@H](CC(=O)O)NC(=O)[C@H](C)NC(=O)[C@H](Cc1ccc(OP(=O)(O)O)cc1)NC(=O)[C@H](CCCCN)NC(=O)[C@@H](NC(=O)[C@H](CC(=O)O)NC(=O)CNC(=O)[C@H](CCCCN)NC(=O)[C@H](CCSC)NC(=O)[C@H](CC(=O)O)NC(=O)[C@H](CC(C)C)NC(=O)[C@H](CCSC)NC(=O)c1ccc2c(c1)C(=O)OC21c2ccc(N(C)C)cc2Oc2cc(N(C)C)ccc21)C(C)C)C(=O)N[C@@H](CCC(=O)O)C(=O)N[C@@H](CO)C(=O)N[C@@H](CO)C(=O)N[C@@H](CC(N)=O)C(=O)N[C@@H](CC(=O)O)C(=O)O` gave a Kd of 593 nM (Tyrosine-protein phosphatase non-receptor type 11, SH2 domains (PTPN11, Homo sapiens, UniProt Q06124); binding).
For `CC[C@H](C)CCCCC(=O)N[C@@H](CCN)C(=O)N[C@H](C(=O)N[C@@H](CCN)C(=O)N[C@H]1CCNC(=O)[C@H]([C@@H](C)O)NC(=O)[C@H](CCN)NC(=O)[C@H](CCN)NC(=O)[C@H](CC(C)C)NC(=O)[C@@H](Cc2ccccc2)NC(=O)[C@H](CCN)NC1=O)[C@@H](C)O`, “concentration at steady state” read 3100 ng/mL (critically ill patients, non-AKI, plasma; intravenous, 150 mg/day, 6 h, median).
For `O=C(Nc1ccccc1)C1CCN(C(=O)Oc2cccnc2)CC1`, “subjects with Rhinitis adverse event” read 0% (adverse event reporting; healthy women; oral, 60 mg, 7 days).
Under “blood chemistry level”, `O=S(=O)(Nc1ccccc1)c1ccc(NC(=S)Nc2ccccc2)cc1` is recorded as 18.5 mg/dL (item: BUN; male mouse, blood; oral, 20 mg/kg daily, 14 days).
For `CC(=O)c1c(C)c2cnc(Nc3ccc(C4CCN(CCS(C)(=O)=O)CC4)cn3)nc2n(C2CCCC2)c1=O`, the Vd was 2750 L (human, plasma; oral, 50 mg, day 1 single dose).
Under “drug-related abnormal skin odour”, `C[C@]1(CO)Cc2ncn(-c3ccc(C#N)c(Cl)c3)c2C(=O)O1` is recorded as 0% (human; 10 mg, European food-effect part, fed).
`c1ccc2c(NCCCCCCCNc3c4c(nc5ccccc35)CCCC4)c3c(nc2c1)CCCC3` gave an IC50 of 5 nM (AChE (Phlebotomus papatasi, UniProt M1F887); enzyme activity, inhibitor).
Under “patients with adverse event”, `CN1CC[C@@H](c2c(O)cc(O)c3c(=O)cc(-c4ccc(C(F)(F)F)cc4Cl)oc23)[C@@H]1CO` is recorded as 0% (item: Hypotension; B-cell malignancies; oral, 200 mg, intermittent dosing).
For `O=C(c1ccc(F)c(F)c1Nc1ccc(I)cc1F)N1CC(O)([C@@H]2CCCCN2)C1`, “AE causing treatment withdrawal” read 15% (human patients; oral, dose not given, dose escalation, suspension).
The relative abundance of `C[C@H]1CN(c2n[nH]c3nc(N[C@H]4CC[C@H](NS(=O)(=O)CCC(F)(F)F)CC4)ncc23)CCO1` is reported as 1.23 (Exportin-2 (Homo sapiens, UniProt P55060); competitor, Kinobeads competition; human cell extract; 20 µM; baseline: vehicle).
Under “incidence of Pyrexia”, `COc1ncnn2ccc(-c3cnc4nc(C)n(Cc5nnc([C@@H](C)F)o5)c4c3)c12` is recorded as 14.3% (human patients; oral, dose not given, all-grade adverse drug reaction).
`C=CC(=O)Nc1cc(Nc2nccc(Nc3cc(Cl)c(F)cc3C(C)(C)O)n2)c(OC)cc1N1CC[C@@H](N(C)C)C1`: “incidence of weight decreased” 0% (treatment-emergent adverse events; human; oral, 200 mg, phase I clinical trial).

Repeated from above:
For `CC[C@H](C)CCCCC(=O)N[C@@H](CCN)C(=O)N[C@H](C(=O)N[C@@H](CCN)C(=O)N[C@H]1CCNC(=O)[C@H]([C@@H](C)O)NC(=O)[C@H](CCN)NC(=O)[C@H](CCN)NC(=O)[C@H](CC(C)C)NC(=O)[C@@H](Cc2ccccc2)NC(=O)[C@H](CCN)NC1=O)[C@@H](C)O`, “concentration at steady state” read 3100 ng/mL (critically ill patients, non-AKI, plasma; intravenous, 150 mg/day, 6 h, median).
For `O=C(Nc1ccccc1)C1CCN(C(=O)Oc2cccnc2)CC1`, “subjects with Rhinitis adverse event” read 0% (adverse event reporting; healthy women; oral, 60 mg, 7 days).
Under “blood chemistry level”, `O=S(=O)(Nc1ccccc1)c1ccc(NC(=S)Nc2ccccc2)cc1` is recorded as 18.5 mg/dL (item: BUN; male mouse, blood; oral, 20 mg/kg daily, 14 days).
For `CC(=O)c1c(C)c2cnc(Nc3ccc(C4CCN(CCS(C)(=O)=O)CC4)cn3)nc2n(C2CCCC2)c1=O`, the Vd was 2750 L (human, plasma; oral, 50 mg, day 1 single dose).
